Measurements of several laboratories.
± marks the error that the study gave.
HTR6: 5-hydroxytryptamine receptor 6 (HTR6, Homo sapiens, UniProt P50406)
Chain of UniProt P50406 (whole entry, looked up): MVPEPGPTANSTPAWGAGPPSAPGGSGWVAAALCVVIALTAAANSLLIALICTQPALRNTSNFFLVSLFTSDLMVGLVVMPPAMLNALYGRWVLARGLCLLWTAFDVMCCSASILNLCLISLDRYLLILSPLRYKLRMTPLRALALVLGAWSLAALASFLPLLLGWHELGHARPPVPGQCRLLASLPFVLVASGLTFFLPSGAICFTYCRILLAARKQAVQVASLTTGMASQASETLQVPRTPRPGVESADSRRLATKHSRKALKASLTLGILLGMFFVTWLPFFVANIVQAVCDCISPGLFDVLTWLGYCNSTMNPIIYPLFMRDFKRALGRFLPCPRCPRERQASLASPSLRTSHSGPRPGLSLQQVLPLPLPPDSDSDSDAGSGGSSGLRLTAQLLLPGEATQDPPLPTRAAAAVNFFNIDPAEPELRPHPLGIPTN
Genome polyprotein NS3 helicase domain: Genome polyprotein, NS3 helicase domain (Hepatitis C virus genotype 1b, UniProt Q9WMX2)
gag nucleocapsid protein p7: Gag polyprotein, nucleocapsid protein p7 (gag, Human immunodeficiency virus type 1 group M subtype B, UniProt P04591)
Chain of UniProt O15264 (whole entry, looked up): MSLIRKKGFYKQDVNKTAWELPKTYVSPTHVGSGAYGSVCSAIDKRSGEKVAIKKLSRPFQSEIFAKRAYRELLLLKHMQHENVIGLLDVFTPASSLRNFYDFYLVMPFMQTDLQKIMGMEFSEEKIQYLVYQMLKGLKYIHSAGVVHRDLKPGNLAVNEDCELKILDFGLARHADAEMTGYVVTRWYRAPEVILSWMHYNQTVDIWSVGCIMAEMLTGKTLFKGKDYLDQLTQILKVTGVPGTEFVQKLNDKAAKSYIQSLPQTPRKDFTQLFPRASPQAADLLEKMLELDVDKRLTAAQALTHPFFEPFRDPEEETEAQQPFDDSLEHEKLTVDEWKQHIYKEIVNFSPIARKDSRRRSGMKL
Chain of UniProt Q9NYY3 (whole entry, looked up): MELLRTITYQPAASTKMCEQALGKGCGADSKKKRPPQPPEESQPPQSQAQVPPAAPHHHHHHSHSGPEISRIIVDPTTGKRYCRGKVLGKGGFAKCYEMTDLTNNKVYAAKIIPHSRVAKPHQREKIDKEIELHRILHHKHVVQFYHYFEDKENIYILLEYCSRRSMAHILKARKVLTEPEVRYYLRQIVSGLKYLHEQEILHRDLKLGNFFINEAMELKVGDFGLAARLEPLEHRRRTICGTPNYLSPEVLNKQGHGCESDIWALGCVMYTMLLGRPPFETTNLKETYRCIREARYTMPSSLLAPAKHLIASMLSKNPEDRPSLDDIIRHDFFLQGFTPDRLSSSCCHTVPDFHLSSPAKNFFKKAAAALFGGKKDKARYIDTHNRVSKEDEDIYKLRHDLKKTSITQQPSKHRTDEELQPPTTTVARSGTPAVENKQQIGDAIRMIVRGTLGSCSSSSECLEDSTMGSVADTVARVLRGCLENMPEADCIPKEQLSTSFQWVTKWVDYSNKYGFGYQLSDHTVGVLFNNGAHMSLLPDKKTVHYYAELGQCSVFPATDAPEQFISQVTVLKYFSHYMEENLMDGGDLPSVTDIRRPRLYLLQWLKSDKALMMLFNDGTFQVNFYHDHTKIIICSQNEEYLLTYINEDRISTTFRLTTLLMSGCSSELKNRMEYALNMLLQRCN
Chain of UniProt P36896 (whole entry, looked up): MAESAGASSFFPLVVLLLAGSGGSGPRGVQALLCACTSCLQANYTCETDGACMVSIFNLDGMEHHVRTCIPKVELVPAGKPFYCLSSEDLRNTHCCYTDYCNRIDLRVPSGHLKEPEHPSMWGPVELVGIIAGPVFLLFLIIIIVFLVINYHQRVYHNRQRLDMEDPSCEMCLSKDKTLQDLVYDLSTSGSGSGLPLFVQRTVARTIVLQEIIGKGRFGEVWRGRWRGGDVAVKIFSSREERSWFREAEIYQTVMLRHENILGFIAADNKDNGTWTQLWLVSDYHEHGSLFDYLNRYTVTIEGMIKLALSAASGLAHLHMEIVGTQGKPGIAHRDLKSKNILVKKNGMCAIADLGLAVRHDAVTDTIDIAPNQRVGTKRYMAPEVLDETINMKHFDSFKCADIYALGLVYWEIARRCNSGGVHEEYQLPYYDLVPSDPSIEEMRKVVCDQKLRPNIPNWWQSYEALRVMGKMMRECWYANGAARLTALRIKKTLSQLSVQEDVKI

CN1CCN(c2nc(N)c3ccccc3n2)CC1 — inhibition (HTR6; radioligand binding, radioligand competition binding; 0.1 µM, second replicate; baseline: control specific binding): 6.3%
O=C(N1CCC2(CC1)C[C@@H](CN1CCCCS1(=O)=O)CCO2)C1(c2ccccc2)CCCC1 — inhibition (Interferon-induced helicase C domain-containing protein 1 (IFIH1, Homo sapiens, UniProt Q9BYX4); ATPase activity; 50 µM): 0%
O=C(Nc1cccnn1)N1CCC(=Cc2cccc(Oc3ccc(C(F)(F)F)cn3)c2)CC1 — inhibition (Prostaglandin F2-alpha receptor (PTGFR, Homo sapiens, UniProt P43088); radioligand binding, inhibitor; 50 µM, human, added: [3H]PGF2alpha): 82%
CN1CCN(c2cc(-c3ccncc3)c(-c3ccc4ccccc4c3)nn2)CC1 — inhibition (Neuromedin-U receptor 2 (NMUR2, Homo sapiens, UniProt Q9GZQ4); antagonist, FLIPR; 10 µM): -6.6%
CCCN(CCC)CCc1ccc(O)c(O)c1 — inhibition (Genome polyprotein NS3 helicase domain; DNA binding, inhibitor; hepatitis C virus; 100 µM, added: Cy5-dT15 DNA): 0%
Cn1cccc1-c1cccnc1 — inhibition (HTR6; binding; 50 µM): 1.38%
C#C[C@]1(O)CC[C@H]2[C@@H]3CCC4=Cc5oncc5C[C@]4(C)[C@H]3CC[C@@]21C — inhibition (gag nucleocapsid protein p7; NCp7-RNA binding, AlphaScreen; HIV-1; 45 µM): > 50%
CN1C(=O)CCS(=O)(=O)C1c1ccc(Cl)cc1 (stereo not shown) — inhibition (Genome polyprotein NS3 helicase domain; DNA binding, inhibitor; hepatitis C virus; 100 µM, added: Cy5-dT15 DNA): 0%
COc1cc(Nc2ncc(F)c(Nc3ccc4c(n3)NC(=O)C(C)(C)O4)n2)cc(OC)c1OC — inhibition (Serine/threonine-protein kinase PLK2 (PLK2, Homo sapiens, UniProt Q9NYY3); KINOMEscan; 10 µM): 100%
Cl.NC1C=CC=C(C(=O)O)C1 (stereo not shown) — inhibition (Genome polyprotein NS3 helicase domain; DNA binding, inhibitor; hepatitis C virus; 100 µM, added: Cy5-dT15 DNA): 0%
COCc1c(-c2cc3cc(C)cc(OC)c3s2)c2c(N)ncnn2c1CN1CCNC(=O)C1 — inhibition (angiotensin-converting enzyme; enzyme activity; 10 µM): 11%
C[N+]1(C)C2CCC1CC(OC(=O)c1c[nH]c3ccccc13)C2.[I-] (stereo not shown) — inhibition (Genome polyprotein NS3 helicase domain; DNA binding, inhibitor; hepatitis C virus; 100 µM, added: Cy5-dT15 DNA): 0%
CC(=O)NC[C@H]1[C@H](O)[C@H](O)[C@@H]2[C@H](O)C[C@@H](CO)N21 — inhibition (Spodoptera litura β-N-acetylglucosaminidase; crude enzyme; 0.00157 µM, run 2, added: p-nitrophenyl GlcNAc): 12%
O=C(Cc1c[nH]c2cc(Cl)ccc12)N1CCC(n2ccnc2)CC1 — inhibition (Trypanothione synthetase (Leishmania infantum, UniProt A4I2Z3); enzyme activity; 25 µM): 10.4 ± 8.9%
Cl.Cl.c1ccc(CCCN2CCN(CCOC(c3ccccc3)c3ccccc3)CC2)cc1 — inhibition (Genome polyprotein NS3 helicase domain; DNA binding, inhibitor; hepatitis C virus; 100 µM, added: Cy5-dT15 DNA): 0%
CN(CCN1CCC(OC(=O)Nc2ccccc2-c2ccccc2)CC1)C(=O)c1ccc(CN2CCC(C(N)=O)CC2)cc1 — inhibition (phenylethanolamine N-methyltransferase; enzyme activity; 1 µM): 5%
COc1ccc(N2C(=O)N(c3c(C)cccc3Cl)Cc3cnc(Nc4ccc(C5CCN(C)CC5)cc4OC)nc32)nc1 — inhibition (Activin receptor type-1B (ACVR1B, Homo sapiens, UniProt P36896); kinase activity, inhibitor; 0.5 µM, ALK4): -54%
CC[C@H](C)[C@H](NC(=O)[C@@H](NC(=O)[C@H](N)Cc1ccccc1)C(C)C)C(=O)N[C@@H](C)C(N)=O — inhibition (Amyloid-beta precursor protein (APP, Homo sapiens, UniProt P05067); amyloid-beta aggregation, thioflavin T fluorescence; 1.0 µM, 168 h, added: 2 µM amyloid-beta): 53.5%
Ic1cccc2cnccc12 — inhibition (central GABA-A receptor (rat); benzodiazepine site binding, radioligand binding; 10 µM, added: flunitrazepam): 16%
C[C@H](C(=O)N[C@H]1COc2ccccc2[C@@H]1S(C)(=O)=O)c1ccc(F)cc1 — inhibition (Tyrosine-protein kinase Lyn, isoform B (LYN, Homo sapiens, UniProt P07948); enzyme activity; 10 µM, Eurofins selectivity panel): 1%
O=C(Nc1cnccc1Cl)N1CCN(Cc2ccc3c(c2)OC(F)(F)O3)CC1 — inhibition (GABA transporter, rat; binding; 50 µM, added: [3H]GABA): 4%
Cl.OCc1c[nH]cn1 — inhibition (Genome polyprotein NS3 helicase domain; DNA binding, inhibitor; hepatitis C virus; 100 µM, added: Cy5-dT15 DNA): 0%
C#Cc1n[nH]c2c(-c3cn([C@@H](C)c4ccccn4)c(=O)[nH]c3=O)cc(F)cc12 — inhibition (Phosphatidylinositol 4,5-bisphosphate 3-kinase catalytic subunit beta isoform, with p85 alpha (PIK3CB, Homo sapiens, UniProt P42338); kinase activity, inhibitor; 100 nM): 16%
CNc1ccc2oc(C[C@H]3O[C@@]4(CC[C@H]3C)O[C@H]([C@H](C)C(=O)c3ccc[nH]3)[C@H](C)C[C@H]4C)nc2c1C(=O)O — inhibition (Genome polyprotein NS3 helicase domain; DNA binding, inhibitor; hepatitis C virus; 100 µM, added: Cy5-dT15 DNA): 1%
FC(F)(F)c1cccc(Nc2nc(NCCOc3ccccc3)nc3[nH]cnc23)c1 — inhibition (Mitogen-activated protein kinase 13 (MAPK13, Homo sapiens, UniProt O15264); Z'-LYTE or Adapta; 5 µM): 7%
C/C(O)=C(\C#N)C(=O)Nc1cc(Br)ccc1Br — inhibition (Genome polyprotein NS3 helicase domain; DNA binding, inhibitor; hepatitis C virus; 100 µM, added: Cy5-dT15 DNA): 1%
C[N+]1(C)CCC(OC(=O)C(O)(c2ccccc2)C2CCCC2)C1 (stereo not shown) — inhibition (gag nucleocapsid protein p7; NCp7-RNA binding, AlphaScreen; HIV-1; 45 µM): > 50%
CN(C(=O)n1cnc(-c2ccc[n+]([O-])c2)c1)C1CCCCC1 — inhibition (KATP channel, hamster; binding; 50 µM, added: [3H]glyburide): -6%

Excerpt of the above:
FC(F)(F)c1cccc(Nc2nc(NCCOc3ccccc3)nc3[nH]cnc23)c1 — inhibition (Mitogen-activated protein kinase 13 (MAPK13, Homo sapiens, UniProt O15264); Z'-LYTE or Adapta; 5 µM): 7%
C/C(O)=C(\C#N)C(=O)Nc1cc(Br)ccc1Br — inhibition (Genome polyprotein NS3 helicase domain; DNA binding, inhibitor; hepatitis C virus; 100 µM, added: Cy5-dT15 DNA): 1%
C[N+]1(C)CCC(OC(=O)C(O)(c2ccccc2)C2CCCC2)C1 (stereo not shown) — inhibition (gag nucleocapsid protein p7; NCp7-RNA binding, AlphaScreen; HIV-1; 45 µM): > 50%
